Assay results gathered from unrelated publications.
Parts stem from different laboratories: compare values within a part only. Substitutions count along the parent as printed.

Block 1
Target: ABI1, truncated, D143A, DHFR fusion (Arabidopsis thaliana)
Method: DHFR PCA, deep sequencing
Matrix: yeast
Notes: methotrexate growth selection, single substitutions
Added: (+)-ABA 0.032 µM
Relative to: wild-type fitted maximum
Reading: higher = stronger binding
Starting sequence: PYL1, truncated, DHFR fusion (Arabidopsis thaliana); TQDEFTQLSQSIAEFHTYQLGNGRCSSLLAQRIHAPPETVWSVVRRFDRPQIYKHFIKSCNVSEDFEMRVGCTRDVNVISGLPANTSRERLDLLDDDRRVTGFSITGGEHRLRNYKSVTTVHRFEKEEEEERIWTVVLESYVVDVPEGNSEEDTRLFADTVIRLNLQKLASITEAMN
`P36C` — result for “relative binding score”: 10.3%.
`P83C`: “relative binding score” 10.7%.
`N77E` — result for “relative binding score”: 63.1%.
`Q51S`: “relative binding score” 7.69%.
`L164N`: “relative binding score” -1.52%.
For `I162P`, “relative binding score” read -2.19%.
`K116F` — result for “relative binding score”: -4.79%.
`V137S` — result for “relative binding score”: -3.2%.
`E139M` — result for “relative binding score”: 2.86%.
`D159I`: “relative binding score” -1.33%.
`S59C` — result for “relative binding score”: 4.62%.
`L28C`: “relative binding score” 16.6%.
`P36Q`: “relative binding score” 7.03%.
For `G107K`, “relative binding score” read 4.57%.
For `E4K`, “relative binding score” read 6.34%.
`I172A`: “relative binding score” -6.89%.

Block 2
Target: Phosphate system positive regulatory protein PHO4, full length, GST-tagged (PHO4, Saccharomyces cerevisiae, UniProt P07270, residues 1-312)
Method: competition protein-binding microarray
Molecule type: double-stranded DNA, one strand shown
Matrix: in vitro
Tested at: 2 µM
Notes: whole 60-bp probe, lowest competitor level
Added: Cbf1 competitor, 0.05 µM
Reading: higher = stronger binding
All sequences stand within: … GTCTTGATTCGCTTGACGCTGCTG
Target sequence (chain): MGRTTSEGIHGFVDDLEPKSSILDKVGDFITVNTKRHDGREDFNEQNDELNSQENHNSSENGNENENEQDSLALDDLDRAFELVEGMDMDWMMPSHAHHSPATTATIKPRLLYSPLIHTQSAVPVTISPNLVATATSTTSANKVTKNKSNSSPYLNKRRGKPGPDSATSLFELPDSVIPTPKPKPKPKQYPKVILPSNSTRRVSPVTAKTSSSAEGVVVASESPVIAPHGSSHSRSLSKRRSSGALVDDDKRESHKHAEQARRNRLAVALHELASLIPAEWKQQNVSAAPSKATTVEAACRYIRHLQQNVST
`CTTTCCCGATCTTGTCTCGTGGGTGTAGCACATTTG` gave a fluorescence intensity of 9290 a.u.
With `GTCTTGTCTCATTTTCACGTGTGGTTCCCCACTTCA` the fluorescence intensity was 11900 a.u.
With `TTCTGTATTCCGGCGCAGGTGATGAACTTGATTACG` the fluorescence intensity was 5610 a.u.
The fluorescence intensity of `AACCAGTCTTTCATCACCGTGATGGTAAATTATATA` is reported as 6000 a.u.
`CGATTCGCTGCTCAACACATGGAGGGCCCAAAGACA` has a fluorescence intensity of 7370 a.u.
`TGCGCAACAACTTGACTGGTGGGTGTATGTCTAGAA` has a fluorescence intensity of 4650 a.u.
With `CGGGGTTAAGTTTGATGAGTGGGTGGCTTGCAGCAG` the fluorescence intensity was 5340 a.u.
`CTTCTGTAAATTTGTCACTTGACTTGACGCGCCCCG` has a fluorescence intensity of 3950 a.u.
For `CTAACGAAGGTTTGTCACATAACTTACAAGCCAAGT`, the fluorescence intensity was 3580 a.u.
For `CTAACGAAGGTTTGCGGGGTGGGTGACAAGCCAAGT`, the fluorescence intensity was 4590 a.u.
`TTGTACGATTGTTTTCACGTGTTTTTACATTTTCTG` gave a fluorescence intensity of 13500 a.u.
The fluorescence intensity of `CATACCCAACCTTGCTGTGTGGGTGAAGATATTTGT` is reported as 5500 a.u.
`CATACCCAACCTTGTCACCGCACTTAAGATATTTGT` has a fluorescence intensity of 4040 a.u.
For `CCGGGAGTTTTTCCGCACGCTAAAATCAAGACTCAA`, the fluorescence intensity was 4920 a.u.
With `TGCGCAACAACTTGTCCGGTGGGTGTATGTCTAGAA` the fluorescence intensity was 3920 a.u.
With `CCCAAACTCTCAAAGCACGATCTAGAGAACCAGCAG` the fluorescence intensity was 8460 a.u.
`TTCTTTGGTCTTGGCCAGAGGTCCCAGAGTCGAAAA` gave a fluorescence intensity of 2000 a.u.
`AAAGCGGTAATTTGTAGCGTGGGTGCAGATATCTAT` has a fluorescence intensity of 7850 a.u.
For `GTCTTGTCTCATTGCAACGTGGGTGTCCCCACTTCA`, the fluorescence intensity was 12100 a.u.
`TCGAACGAAAAAAGAAACGTGATAGCGATGTAAGTA` gave a fluorescence intensity of 12000 a.u.
The fluorescence intensity of `CAGCGAGAACATCACCACGGGCTATATAAATGGAAA` is reported as 8580 a.u.
For `TGATGTTTTGACTGTCATGCTACAAATGTTGGATGA`, the fluorescence intensity was 5390 a.u.
`TTTATCGTTTTCTGTGACGTGGCCGATGAGCACCAG` has a fluorescence intensity of 5310 a.u.
`CTTTCCCGATCTTTTCACGTGATTTTAGCACATTTG` has a fluorescence intensity of 11700 a.u.
For `AAATTACTAAGTTGTATGGTGGGTGACGCCGTATGA`, the fluorescence intensity was 3920 a.u.

Block 3
Target: Ras GTPase-activating protein-binding protein 1, RRM domain (G3BP1, Homo sapiens, UniProt Q13283)
Chain of UniProt Q13283 (whole entry, looked up): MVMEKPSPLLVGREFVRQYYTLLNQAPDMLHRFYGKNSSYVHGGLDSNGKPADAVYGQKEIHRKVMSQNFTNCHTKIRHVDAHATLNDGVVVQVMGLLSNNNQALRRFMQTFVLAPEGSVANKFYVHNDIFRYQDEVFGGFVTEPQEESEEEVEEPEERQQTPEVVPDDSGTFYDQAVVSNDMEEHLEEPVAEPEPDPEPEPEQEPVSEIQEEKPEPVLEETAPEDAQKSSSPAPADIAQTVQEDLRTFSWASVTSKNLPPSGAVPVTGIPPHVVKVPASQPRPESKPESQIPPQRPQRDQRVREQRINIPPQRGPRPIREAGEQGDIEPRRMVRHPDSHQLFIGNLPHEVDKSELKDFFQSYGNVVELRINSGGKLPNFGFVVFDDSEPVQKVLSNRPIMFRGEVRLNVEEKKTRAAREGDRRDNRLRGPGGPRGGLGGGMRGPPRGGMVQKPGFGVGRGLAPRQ
Method: RNA Bind-n-Seq
Molecule type: RNA
Matrix: in vitro
Tested at: 1 µM
Notes: whole 134-nt RNA, ends assumed
Added: 150 mM KCl
Relative to: input library
Reading: higher = stronger binding
All sequences stand within: GGGAGUUCUACAGUCCGACGAUC … UGGAAUUCUCGGGUGUCAAGG
`CACAGACAACACGCACCCACACAGACACAGAGGGAAGGGGUUGGGAUGGGGACAGGGUGCACAGCAGGGCGGGGUAGGACCCCCGCCCCU` has a log2 enrichment of -0.438.
For `AACAUGCAGGUGGGCAUCUUUGGGAAGUGGGGCAAGGGGGGGAUAGGGAGGGGGGUAACACUUUGGGAACAGGUGGUCCCAGGUCGUUUC`, the log2 enrichment was -0.609.
`CAGCAGUGAGUCUCUUCAGAAAACCCUUUUCUACAGUUAGGGUUGAGUUACUUCCUAUCAAGCCAGUACGUGCUAACAGGCUCAAUAUUC` has a log2 enrichment of -0.209.
`AAGUCCUGUGCUACACAUCGUAUGUACCGAAUCGGUUUGGUUUUUGGAAAAAAAGGAAAGUAUUAUGUUACGCCGUUCGGAUCUGCACUU` gave a log2 enrichment of -0.136.
The log2 enrichment of `ACCAUGCAGGUGGGCAUCUUUGGGAAGGGGGGCAAGGGGGGGAUAGGGAGGGGGGUAACACUUUGGGAACAGGUGGUCCCAGGUCGUUUC` is reported as -0.543.
`UCCUCAAGUCCUGUGCUACACAUCGUAUGUACCGAAUCGGCGGCGGGCGGGGAAAGUAUUAUGUUACGCCGUUCGGAUCUGCACUUCCAG` has a log2 enrichment of -0.205.
`UGGCCCUGGUGGCAUGCGGGGAGGAAGAGGUGGCCUCAUGGAUCGUGGUGGUCCCGGUGGAAUGUUCAUAGGUGGCCGUGGUGGAGACAG` has a log2 enrichment of 1.68.
The log2 enrichment of `UUGUGGCUGAGAGACAGUUUGCAAAGGAACAACAUACAGAUGGGACACUAAAGGAAGUUGGAGAAGAUUAUCAAAUCGCAAUCCCAGAUU` is reported as 0.0487.
For `UCCUGUGCUACACAUCGUAUGUACCGAAUCGGGGUUUUUGGGGUUUUUUUGGGGUGGGGAAAGUAUUAUGUUACGCCGUUCGGAUCUGCA`, the log2 enrichment was 0.584.
`CCUGUGCUACACAUCGUAUGUACCGAAUCGGGGCCCCCCCGGCCCCCCCGGCCCCCCCGGAAAGUAUUAUGUUACGCCGUUCGGAUCUGC` has a log2 enrichment of -0.695.

Block 4
Target: CCNE1, cyclin fold, Cln2 fusion (human)
Method: yeast growth competition, sequencing
Matrix: yeast
Notes: strong parent motif
Relative to: not given
Reading: higher = stronger binding
Starting sequence: REPIN1 docking peptide (human); QSFRGWVALVLHL
`R4A`: “normalised enrichment score” 0.565.
`V7A`: “normalised enrichment score” 1.81.
`L13A`: “normalised enrichment score” 1.08.
`S2A` — result for “normalised enrichment score”: 1.1.
For `F3A`, “normalised enrichment score” read 1.05.
Under “normalised enrichment score”, `Q1A` is recorded as 1.14.

Block 5
Target: Histone acetyltransferase KAT6A, both winged helices, GST fusion (KAT6A, Homo sapiens, UniProt Q92794, residues 1-181)
Method: protein binding microarray
Molecule type: double-stranded DNA, one strand shown
Matrix: in vitro
Tested at: not given
Notes: 8-mer, flanks averaged, mean of 2 arrays, mostly near background
Relative to: not given
Reading: higher = stronger binding
Construct (chain): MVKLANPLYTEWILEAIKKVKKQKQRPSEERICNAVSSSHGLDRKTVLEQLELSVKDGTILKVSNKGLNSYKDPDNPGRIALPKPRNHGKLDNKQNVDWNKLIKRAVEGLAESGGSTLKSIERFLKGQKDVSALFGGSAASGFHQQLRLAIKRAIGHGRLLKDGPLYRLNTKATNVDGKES
`TCCGCTAA` has an E-score of 0.204.
The E-score of `CATAGAAC` is reported as -0.0939.
For `ACATTAGA`, the E-score was -0.111.
The E-score of `AACTGATT` is reported as -0.147.
For `ATACGAAG`, the E-score was -0.101.
`ATGGGCCG` gave an E-score of 0.116.
`ACGAAGCT` gave an E-score of -0.0699.
`ACGCCAAC` gave an E-score of 0.0506.
For `GACCAGGA`, the E-score was -0.146.
The E-score of `CACATTGC` is reported as 0.0172.
`GAACGCCA` gave an E-score of 0.00213.
`ATAAATAC` has an E-score of -0.11.
`ATGTATCG` gave an E-score of -0.0358.
For `CCTCGGCG`, the E-score was 0.289.
`CCGCAAAG` has an E-score of 0.222.
`ACAAGGAA` gave an E-score of -0.109.
`CCTAAGCG` gave an E-score of 0.0935.
`GAGGTCAA` has an E-score of -0.0121.
The E-score of `ATCGGGAA` is reported as 0.19.
The E-score of `ATGGATCC` is reported as 0.027.
With `CGCTAGAC` the E-score was 0.178.
`CCAGTCTA` gave an E-score of -0.139.
`GCGCGCCA` gave an E-score of 0.362.
With `GACGAAAC` the E-score was 0.0276.
`CCGGCCAC` has an E-score of 0.143.

Some of these lines once more (block 5):
The E-score of `AACTGATT` is reported as -0.147.
For `ATACGAAG`, the E-score was -0.101.
`ATGGGCCG` gave an E-score of 0.116.
`ACGAAGCT` gave an E-score of -0.0699.
`ACGCCAAC` gave an E-score of 0.0506.
For `GACCAGGA`, the E-score was -0.146.
The E-score of `CACATTGC` is reported as 0.0172.
`GAACGCCA` gave an E-score of 0.00213.
`ATAAATAC` has an E-score of -0.11.
`ATGTATCG` gave an E-score of -0.0358.
For `CCTCGGCG`, the E-score was 0.289.
`CCGCAAAG` has an E-score of 0.222.
`ACAAGGAA` gave an E-score of -0.109.
